# Assay results from different studies.
# Several values in a cell are separate wells, animals, samples, runs or records. Numbers after ± are the reported error.
SMILES,cell line,assay,system,conditions,how to read,endpoint,result
CC(C)C[C@H](NC(=O)[C@H](CC(=O)O)NC(=O)CNC(=O)[C@@H](N)CCCNC(=N)N)C(=O)N[C@@H](C)C(=O)N[C@H](C(=O)N[C@@H](CC(C)C)C(=O)N[C@@H](CCCNC(=N)N)C(=O)N[C@@H](CCC(N)=O)C(=O)N[C@@H](CC(C)C)C(=O)N[C@@H](C)C(=O)N[C@@H](CCC(N)=O)C(=O)N[C@@H](CCC(=O)O)C(=O)N[C@@H](CC(=O)O)C(=O)NCC(=O)N[C@H](C(=O)N[C@H](C(=O)NCC(=O)N[C@H](C(=O)N[C@@H](CCCNC(=N)N)C(=O)NCCOCCOCCOCCOCCOCCOCCOCCOCCOCCOCCOCCOCCC(=O)N[C@@H](CS)C(N)=O)C(C)C)C(C)C)C(C)C)[C@@H](C)O,H2126 lung adenocarcinoma,"cell binding, phage binding, refers to: output/input phage",,"10 min, 37 °C",relative to: control phage,selectivity ratio,28 ± 10
CC(C)Cc1ccc(C(C)C(=O)[Se]CC(=O)Nc2cccc(C(F)(F)F)c2)cc1 (stereo not drawn),NCI60 leukaemia subpanel,NCI60 five-dose screen,,,,CC50,10.4 µM
Cc1cc(Oc2nc(N3CC[C@@H](c4ccncc4)C3)ncc2F)[nH]n1,MHH-ES-1,cell proliferation,bone cancer,,,IC50,77.6 µM
CC1CCC2C(C)C(OC(=O)CCC(=O)N3CCC(Nc4ccc(S(=O)(=O)NC(=O)c5ccc(N6CCN(CC7=C(c8ccc(Cl)cc8)CC(C)(C)CC7)CC6)cc5Oc5cnc6[nH]ccc6c5)cc4[N+](=O)[O-])CC3)OC3OC4(C)CCC1C32OO4 (stereo not drawn),THP-1,"annexin V/PI flow cytometry, refers to: annexin V+/PI-",,"0.8 µM, 24 h",,early apoptotic cells,54%
O=C(O)c1ccc(-c2nc(-c3ccccc3Cl)c3sccn23)cc1,HEL,flow cytometry,,concentration not given,relative to: cells,S phase cells,26.7% and 25.9% and 27%
CC(C)C12OC1C1OC13C1(C)CCC4=C(COC4=O)C1CC1OC13C2OC(=O)CCC(=O)OC1OC(CO)C(O)C(O)C1O (stereo not drawn),SK-BR-3,"cell growth or viability, XTT",,47 h,,IC50,1.3 µM
CC(C)(C)C(=O)OCOP(=O)(OCOC(=O)C(C)(C)C)C1CCCN(O)C1=O (stereo not drawn),UACC-257,,,,,CC50,> 100 µM
CC(C)CC(O)(CC(C)C)c1cn(C(=O)N2CCCC2)nn1,mouse T-cells,"SILAC proteomics, refers to: FDX1",,"1 nM, 6 h, unit not given",relative to: DMSO,protein level,1.01
CSCC[C@H](NC(=O)CNC(=O)[C@H](CCSC)NC(=O)[C@H](CS)NC(=O)[C@@H](N)CS)C(=O)N[C@@H](CS)C(=O)NCC(=O)N[C@@H](CCCCN)C(=O)O,RAW264.7,"Western blot, refers to: NF-κB over β-actin",,"0.1 and 1 µg/mL, together with: LPS",,NF-κB level,decreased

# For quick reference, copied from above:
SMILES,cell line,assay,system,conditions,how to read,endpoint,result
CC(C)C[C@H](NC(=O)[C@H](CC(=O)O)NC(=O)CNC(=O)[C@@H](N)CCCNC(=N)N)C(=O)N[C@@H](C)C(=O)N[C@H](C(=O)N[C@@H](CC(C)C)C(=O)N[C@@H](CCCNC(=N)N)C(=O)N[C@@H](CCC(N)=O)C(=O)N[C@@H](CC(C)C)C(=O)N[C@@H](C)C(=O)N[C@@H](CCC(N)=O)C(=O)N[C@@H](CCC(=O)O)C(=O)N[C@@H](CC(=O)O)C(=O)NCC(=O)N[C@H](C(=O)N[C@H](C(=O)NCC(=O)N[C@H](C(=O)N[C@@H](CCCNC(=N)N)C(=O)NCCOCCOCCOCCOCCOCCOCCOCCOCCOCCOCCOCCOCCC(=O)N[C@@H](CS)C(N)=O)C(C)C)C(C)C)C(C)C)[C@@H](C)O,H2126 lung adenocarcinoma,"cell binding, phage binding, refers to: output/input phage",,"10 min, 37 °C",relative to: control phage,selectivity ratio,28 ± 10
